{"data": "Measured values pooled from the literature", "note": "Every numbered part comes from another study and shows a few of its results, in no order."}
{"data": "Series 1", "target": "Histone acetyltransferase KAT6A, both winged helices, GST fusion (KAT6A, Homo sapiens, UniProt Q92794, residues 1-181)", "method": "protein binding microarray", "molecule type": "double-stranded DNA, one strand shown", "sample": "in vitro", "tested at": "not given", "setting": "8-mer, flanks averaged, mean of 2 arrays, mostly near background", "baseline": "not given", "reading": "higher = stronger binding", "Residues (chain)": "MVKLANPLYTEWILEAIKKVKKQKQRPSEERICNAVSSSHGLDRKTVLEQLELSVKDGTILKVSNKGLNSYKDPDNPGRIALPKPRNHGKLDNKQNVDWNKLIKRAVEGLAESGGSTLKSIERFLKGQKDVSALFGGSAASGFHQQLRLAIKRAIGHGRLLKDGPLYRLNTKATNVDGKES"}
{"Strand": "GATGCGGC", "E-score": 0.194}
{"Strand": "GGTGCCAC", "E-score": -0.0288}
{"Strand": "ATCGAGCC", "E-score": 0.166}
{"Strand": "ATGATTTA", "E-score": -0.129}
{"Strand": "CGGTGGTA", "E-score": 0.0697}
{"Strand": "ATACGCAT", "E-score": 0.065}
{"Strand": "CGCCGAAG", "E-score": 0.225}
{"Strand": "AACTGTTG", "E-score": -0.13}
{"Strand": "GCCTCATA", "E-score": -0.0998}
{"Strand": "AATTGAAT", "E-score": 0.00716}
{"Strand": "ATTATAGC", "E-score": -0.12}
{"Strand": "ACCGCATG", "E-score": 0.24}
{"Strand": "ACCTGCCC", "E-score": -0.0772}
{"Strand": "CTGGGCAC", "E-score": -0.0816}
{"Strand": "GATATATC", "E-score": 0.109}
{"Strand": "AACGTGCG", "E-score": 0.152}
{"Strand": "CAGATGCA", "E-score": -0.188}
{"Strand": "CGTTCCTC", "E-score": 0.0611}
{"Strand": "CACCAGAG", "E-score": -0.231}
{"data": "Series 2", "target": "Centromere-binding protein 1, full length, His-tagged (CBF1, Saccharomyces cerevisiae, UniProt P17106, residues 1-351)", "method": "competition protein-binding microarray", "molecule type": "double-stranded DNA, one strand shown", "sample": "in vitro", "tested at": "2 µM", "setting": "whole 60-bp probe, lowest competitor level", "added": "Pho4 competitor, 0.05 µM", "reading": "higher = stronger binding", "shared flanks, not repeated": "… GTCTTGATTCGCTTGACGCTGCTG", "UniProt P17106, sequence (whole entry, looked up)": "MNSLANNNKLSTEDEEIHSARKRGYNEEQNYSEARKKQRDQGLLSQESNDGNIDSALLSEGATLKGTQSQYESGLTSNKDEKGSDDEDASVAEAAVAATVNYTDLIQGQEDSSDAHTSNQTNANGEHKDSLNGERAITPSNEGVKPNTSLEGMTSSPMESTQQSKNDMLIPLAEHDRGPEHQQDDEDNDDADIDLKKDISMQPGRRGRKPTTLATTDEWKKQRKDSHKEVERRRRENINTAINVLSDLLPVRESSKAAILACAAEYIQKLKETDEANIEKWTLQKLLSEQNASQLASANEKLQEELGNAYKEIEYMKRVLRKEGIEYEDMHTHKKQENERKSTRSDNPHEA"}
{"Strand": "AAAGCGGTAATTTTTCACGTGCCATCACATATCTAT", "fluorescence intensity": "1350 a.u."}
{"Strand": "CTAACGAAGGTTTGTCACGACACTTACAAGCCAAGT", "fluorescence intensity": "218 a.u."}
{"Strand": "CAAATGTTGCCTTTGCACGTGAAGGTGCATTTGTAT", "fluorescence intensity": "773 a.u."}
{"Strand": "CGGGGTTAAGTTTGTAAGGTGGGTGGCTTGCAGCAG", "fluorescence intensity": "66.8 a.u."}
{"Strand": "TGTTAATTAAACCATCACGGCTCATTCATTTGAGTT", "fluorescence intensity": "91.1 a.u."}
{"Strand": "GCTCAAGCTCAAACACACGTGCAAACAAACCCCCAA", "fluorescence intensity": "1620 a.u."}
{"Strand": "CTGTCGAAGAGTAGTCACCTGTTCCAACTAAGATAG", "fluorescence intensity": "438 a.u."}
{"Strand": "GTCTTGTCTCATTGCGGAGTGGGTGTCCCCACTTCA", "fluorescence intensity": "67 a.u."}
{"Strand": "TTTCCAGGCCCAGCGAGCGTGCTTTGCAAGAGGATC", "fluorescence intensity": "67.4 a.u."}
{"Strand": "AGGTGCCTTAAAGAACACGCGGACACACTTGTTTGG", "fluorescence intensity": "108 a.u."}
{"Strand": "TCCTGAAGGTGTTTGCACGTGTGGACGGCTAGAGAA", "fluorescence intensity": "826 a.u."}
{"Strand": "ATCGTCAAAAGAGTAAACGTGCCGAGCAAAATCATC", "fluorescence intensity": "127 a.u."}
{"data": "Series 3", "target": "Interferon regulatory factor 3, full length, phosphomimetic (IRF3, Homo sapiens, UniProt Q14653, residues 1-427, S386D/S396D/S398D/S402D/T404D/S405D)", "method": "protein-binding microarray", "molecule type": "double-stranded DNA, one strand shown", "sample": "in vitro", "tested at": "2540 nM top", "setting": "60-bp whole probe", "added": "salmon DNA 0.4 mg/ml", "baseline": "random background probes", "reading": "higher = stronger binding", "shared flanks, not repeated": "GCCTAGCAC … GTCTTGATTCGCTTGACGCTGCTG", "Construct (chain)": "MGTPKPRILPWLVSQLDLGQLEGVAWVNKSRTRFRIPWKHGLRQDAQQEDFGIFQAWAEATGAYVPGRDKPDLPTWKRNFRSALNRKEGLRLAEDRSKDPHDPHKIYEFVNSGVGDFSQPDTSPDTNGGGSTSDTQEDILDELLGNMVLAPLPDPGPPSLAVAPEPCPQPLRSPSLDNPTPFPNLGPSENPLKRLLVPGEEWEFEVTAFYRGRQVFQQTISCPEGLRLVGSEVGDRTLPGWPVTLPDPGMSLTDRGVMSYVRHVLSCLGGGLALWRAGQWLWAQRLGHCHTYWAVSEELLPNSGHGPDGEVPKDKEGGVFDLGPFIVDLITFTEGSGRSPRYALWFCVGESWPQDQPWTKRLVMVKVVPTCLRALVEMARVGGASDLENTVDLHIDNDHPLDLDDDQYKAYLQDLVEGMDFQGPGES"}
{"Strand": "GACGGACTGGTTATCGGGACGTGCTAG", "fitted relative affinity": "-0.274 z-score"}
{"Strand": "GTCGATCTCAGTCTCGAGACGTGCTAG", "fitted relative affinity": "1.6 z-score"}
{"Strand": "GGACTCACCTAGTTTCATTCCGTGCTA", "fitted relative affinity": "1.6 z-score"}
{"Strand": "TTAGGTATCGACTATCCGTTAGTGCTA", "fitted relative affinity": "0.664 z-score"}
{"Strand": "GCCGGTTTCGGTCTCGGGACGTGCTAG", "fitted relative affinity": "8.55 z-score"}
{"Strand": "TCAGGTATCGGGTTTCGGTTAGTGCTA", "fitted relative affinity": "4.17 z-score"}
{"Strand": "GACGTTATCGGACTGGGGACGTGCTAG", "fitted relative affinity": "0.266 z-score"}
{"Strand": "TTAGAACTGCTTTTCCTTTAGTGCTAG", "fitted relative affinity": "0.754 z-score"}
{"Strand": "GACGGTTTCGAACTGGGGACGTGCTAG", "fitted relative affinity": "3.29 z-score"}
{"Strand": "TTAGGTTTCGGACTGGGTTCGTGCTAG", "fitted relative affinity": "3.88 z-score"}
{"Strand": "CTCGGGACAGGCACTCTACGGTGCTAG", "fitted relative affinity": "-0.873 z-score"}
{"Strand": "TTAGGACTGGACTATCGCTTAGTGCTA", "fitted relative affinity": "-0.493 z-score"}
{"Strand": "TTCAATTTTTGCATCGTAAGGTGCTAG", "fitted relative affinity": "0.198 z-score"}
{"Strand": "TTAGGTGTCCTTTCCCTTTAGTGCTAG", "fitted relative affinity": "6.02 z-score"}
{"data": "Series 4", "target": "Fragile X messenger ribonucleoprotein 1, C-terminal low-complexity region (Fmr1, Mus musculus, UniProt P35922)", "method": "RNA Bind-n-Seq", "molecule type": "RNA", "sample": "in vitro", "tested at": "200 nM", "setting": "whole 134-nt RNA, ends assumed", "added": "150 mM LiCl", "baseline": "input library", "reading": "higher = stronger binding", "all molecules": "7-deaza-guanosine replaces G", "shared flanks, not repeated": "GGGAGUUCUACAGUCCGACGAUC … UGGAAUUCUCGGGUGUCAAGG"}
{"Strand": "CUGUGCUACACAUCGUAUGUACCGAAUCGGGAAAAAAAGGAAAAAAAGGGGAAAAAAAGGGAAAGUAUUAUGUUACGCCGUUCGGAUCUG", "log2 enrichment": "-2.55e-05"}
{"Strand": "UGGCCCUGGUGUCAUGCGGGGAGGAAGAGGUGGCCUCAUGGAUCGUGGUGGUCCCGGUGGAAUGUUCAGAGGUGGCCGUGGUGGAGACAG", "log2 enrichment": -0.189}
{"Strand": "GCAGGAAGUAAAAACAAAUGGAAAUGCUUCGGAUAGUGGCAGGGGUGGGGGUUGCUAUGGAAAGGGUGGGAUGGGAGUGGGUAAAGAGUU", "log2 enrichment": 1.3}
{"Strand": "GUCCUGUGCUACACAUCGUAUGUACCGAAUCAAACCCAAAUUUUUAAACCCCCCCAAAAAAGUAUUAUGUUACGCCGUUCGGAUCUGCAC", "log2 enrichment": 1.45}
{"Strand": "UCAAGUCCUGUGCUACACAUCGUAUGUACCGAAUCGGGGUGGGGUGGGGUGGGGAAAGUAUUAUGUUACGCCGUUCGGAUCUGCACUUCC", "log2 enrichment": -0.395}
{"Strand": "UGCACUGACUGGUGGUGUCAACCCAUGGCUCAACUGGAAGCACUGUGGAAGAAGAUGGAGGGUGUGGUAAGUCCAUCAGACCUGGGACCG", "log2 enrichment": -1.38}
{"data": "Series 5", "target": "RNA binding protein fox-1 homolog 2, RRM domain, GST-SBP tag (RBFOX2, Homo sapiens, UniProt O43251-10, residues 100-194)", "method": "RNA Bind-n-Seq", "molecule type": "RNA", "sample": "in vitro", "tested at": "365 nM", "setting": "natural RNA segment, single round, ends assumed", "baseline": "no-protein control", "reading": "higher = stronger binding", "shared flanks, not repeated": "GGGAGUUCUACAGUCCGACGAUC … UGGAAUUCUCGGGUGCCAA", "Construct (chain)": "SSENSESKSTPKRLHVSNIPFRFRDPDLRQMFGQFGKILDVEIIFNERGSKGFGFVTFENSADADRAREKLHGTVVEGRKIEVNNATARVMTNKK"}
{"Strand": "UAAAGCCAGAUUUUAGAGGUUUGAUAUGUUUGGUCUCAGGAGCUCAAAAGAAGUAGCUUUUUCCAGUGUCUUUUGUGUUACUGAUUUGGGAAAUGUUGAAAGAUUGGACA", "RBNS enrichment (R)": 0.787}
{"Strand": "AACUCCCUUGUCUGUUUCUAAACUCGUGUUACCAGUCCAGUGUACCUCCCUCCCUGCAGGCUUUUGUCUGGCAGGAGACAGCAACACCUCCUAGGACUCUGUACUUGAUU", "RBNS enrichment (R)": 0.662}
{"Strand": "CGACAUUUAAUGUUGGCAGUGUCAGGCCUCUGACUUGAGACUACUGCUGUCGCAGAUCCUCUCUCUGGCCCUGUUUUGGGGAGGGCCAUUCUUGGUCCUAAGGUUCAUAG", "RBNS enrichment (R)": 0.252}
{"Strand": "ACCUUGCCUGGGACCAGCCUGGGAACCAGACACUGGGGCCCUUUCCUCACUCUUCCACUGACCCACUGUGUGACCUGAAGAGAGCCCUGCCCUCUCUGAGCCUCAGUGUU", "RBNS enrichment (R)": 0.561}
{"Strand": "UCAGGUUUCUACAAAUAGGGUAAUUGUAAAUUUAAAGCAUUAGCAUUUAUUGGUGAAUAAUGUAUAUAUCCCCAUUCCAAGAAAUAUAAGUGAGUGAAGUUGAAAUAAAA", "RBNS enrichment (R)": 0.518}
{"Strand": "AGUAACAAAAUUAUUUUUCAUUGGCCUAUUCUGUUCUUGUGUCUAAACUAACAUUACAUUAAUUUUUAAUCUUAGUUUCUGAUAAACACAAGCCAUUCCUAUCAAAAUAU", "RBNS enrichment (R)": 0.224}
{"Strand": "CUAGCCCCCAAAUCAAAAGCACUGUAUAGCAUUUCACACCGAGCCCCUCACCAAAACUCACACAGUUGCGAGAAGAGCUGCUGUCUGUGGACACGUAGAGAAAGGACAUU", "RBNS enrichment (R)": 0.402}
{"Strand": "GCACUCAGACAUGACAUUUCAAUUCAUCUCUGCUAAUGAAAAGGGUUCUUUCUCUUGGGGGAAAUGUGUGUGUCAGUUCUGUCAGCUGCAAGUUCUUGUAUAAUGAAGUC", "RBNS enrichment (R)": 1.15}
{"Strand": "GUCAUUCUUAGUGUUCAGGUGCUAAAGGUUGUUCUCUUUGGGAACAGAGUGACAAGAAACUGGCUAGUUUGCUAUAAAUCCUACAUUCUGUUUGAUACCUUGAGAGCAGA", "RBNS enrichment (R)": 0.282}
{"Strand": "CUAAAUAUUUUGUUUAUACUAAGGGACAAUUAUUUUAAGACCAUGGAUUUAAAAAAAAAAAAAAAAACUCUGUUUCUGCAGGGGAUGAUAUUGGUGAGUUGCCAAAGAAG", "RBNS enrichment (R)": 0.51}
{"Strand": "CUUAUGAACCUUUACAUCCAGAUAGGUUACCAGUAACGGAACAGUAUCCAGUACUCCUGGUUCCUAGGUGAGCAGGUGAUGCCCCAGGGACCUUUGUAGCCACUUCACUU", "RBNS enrichment (R)": 0.338}
{"Strand": "CGCGCCCCGGAGGCCCUGGCUCUGUCCGGAGACCAGGUGAGCACAGCCUGGAGCCUGUGCCCAGGGCCGACAGGCGCGACACCCAGCAAGGCCACCUCUCCCCGGGCCCC", "RBNS enrichment (R)": 0.246}
{"note": "For quick reference, copied from above (series 1):"}
{"Strand": "CGGTGGTA", "E-score": 0.0697}
{"Strand": "ATACGCAT", "E-score": 0.065}
{"Strand": "ATCGAGCC", "E-score": 0.166}
{"Strand": "AATTGAAT", "E-score": 0.00716}
{"Strand": "AACTGTTG", "E-score": -0.13}
